Assay results from different studies.
Every numbered part comes from another study and shows a few of its results, in no order.

Sample 1
Target: Interferon regulatory factor 7, full length, phosphomimetic (IRF7, Homo sapiens, UniProt Q92985, residues 1-503, S471D/S472D/S475D/S476D/S477D/S483D/S484D/S487D)
Technique: protein-binding microarray
Form: double-stranded DNA, one strand shown
Medium: in vitro
Concentration: 2200 nM top
Setting: 60-bp whole probe
With: salmon DNA 0.4 mg/ml
Reference: random background probes
Reading: higher = stronger binding
All sequences stand within: GCCTAGCAC … GTCTTGATTCGCTTGACGCTGCTG
Construct (chain): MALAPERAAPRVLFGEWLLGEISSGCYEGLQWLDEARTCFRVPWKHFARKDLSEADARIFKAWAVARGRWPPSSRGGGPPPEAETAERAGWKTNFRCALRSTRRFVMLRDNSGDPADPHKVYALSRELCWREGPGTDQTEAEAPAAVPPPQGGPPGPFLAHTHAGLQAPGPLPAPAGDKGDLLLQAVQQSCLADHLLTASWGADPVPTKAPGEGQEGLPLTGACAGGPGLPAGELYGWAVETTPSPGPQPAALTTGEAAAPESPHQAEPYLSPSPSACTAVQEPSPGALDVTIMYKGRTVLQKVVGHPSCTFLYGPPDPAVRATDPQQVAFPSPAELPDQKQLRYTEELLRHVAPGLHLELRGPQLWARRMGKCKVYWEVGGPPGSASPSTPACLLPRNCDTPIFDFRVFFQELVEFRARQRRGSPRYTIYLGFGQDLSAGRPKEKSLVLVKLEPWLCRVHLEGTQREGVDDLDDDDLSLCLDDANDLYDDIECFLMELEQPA
| Oligonucleotide | fitted relative affinity [z-score] |
| --- | --- |
| TCAATGCTGGCTTTTATACTGTGCTAG | -0.154 |
| TCATTTTTTTTCATCATACTGTGCTAG | 1.79 |
| TTAGATATCAGGTTTCGATTAGTGCTA | 3.46 |
| TACGGTTTCCTTCTCCTGACGTGCTAG | 3.22 |
| TTAGATATCGGGACTGGATGAGTGCTA | -0.359 |
| TTAGGTATCCTTCTCGTTTAGTGCTAG | 1.27 |
| TTAGGTTTCGGACTAGGTTAGTGCTAG | 2.62 |
| GACGGACTGCGGTATCGGGACGTGCTA | -0.772 |

Sample 2
Organism: SARS-CoV-2
Observed: cytopathic effect
Cells: Vero E6
Concentration: 10 µM
| Structure (SMILES) | inhibition [%] |
| --- | --- |
| CC(C)N(CCC(=O)c1ccc2ccccc2c1)Cc1ccccc1 | -25.9 |
| CCN(CC)S(=O)(=O)c1cccc(-n2sc3ccccc3c2=O)c1 | 5 |
| O=C(/C=C/c1ccc2ccc(C(F)(F)F)cc2n1)c1ccncc1 | 0.32 |

Sample 3
Target: Sal-like protein 4, full length isoform B (SALL4, Homo sapiens, UniProt Q9UJQ4-2, residues 1-616)
Technique: universal PBM
Form: double-stranded DNA, one strand shown
Medium: in vitro
Concentration: not given
Setting: 8-mer, flanks averaged, mean of replicates
Reading: higher = stronger binding
| Oligonucleotide | E-score |
| --- | --- |
| ATGCAGTA | 0.117 |
| GGTACTGA | -0.168 |
| CTAAACTC | -0.013 |
| TCAACGGA | -0.0452 |
| CGGTTCTA | -0.0918 |
| ATTTCGTC | 0.231 |
| AGTTCTCG | 0.0594 |
| CAAAGGCC | -0.249 |

Sample 4
Target: Histone acetyltransferase KAT6A, winged helix 2, GST fusion (KAT6A, Homo sapiens, UniProt Q92794, residues 85-181)
Technique: protein binding microarray
Form: double-stranded DNA, one strand shown
Medium: in vitro
Concentration: not given
Setting: 8-mer, flanks averaged, mean of 2 arrays, mostly near background
Reference: not given
Reading: higher = stronger binding
Target sequence (chain): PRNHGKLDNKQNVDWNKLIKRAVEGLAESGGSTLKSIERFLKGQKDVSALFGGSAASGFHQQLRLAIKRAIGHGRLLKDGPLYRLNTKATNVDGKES
| Oligonucleotide | E-score |
| --- | --- |
| ATCGGGCA | 0.00954 |
| CGTGACTA | -0.0457 |
| ATGGACGG | 0.156 |
| TATGCCAA | 0.04 |
| CAGCGTCC | 0.0688 |
| CATCAAAA | 0.113 |
| CATTAGCA | 0.0668 |
| AGCGATAA | 0.00357 |

Sample 5
Target: Replicase polyprotein 1ab, polymerase (rep, Severe acute respiratory syndrome coronavirus 2, UniProt P0DTD1)
Observed: enzyme activity
Action: inhibitor
Concentration: 20 µM
| SMILES | inhibition [%] |
| --- | --- |
| CN1CCN(CC/C=C2/c3ccccc3Sc3ccc(S(=O)(=O)N(C)C)cc32)CC1 | 1.95 |
| CC(C)C[C@H](NC(=O)[C@@H](COC(C)(C)C)NC(=O)[C@H](Cc1ccc(O)cc1)NC(=O)[C@H](CO)NC(=O)[C@H](Cc1c[nH]c2ccccc12)NC(=O)[C@H](Cc1cnc[nH]1)NC(=O)[C@@H]1CCC(=O)N1)C(=O)N[C@@H](CCCNC(=N)N)C(=O)N1CCC[C@H]1C(=O)NNC(N)=O | 1.82 |
| COc1ccc(CCN(C)CCCN2CCc3cc(OC)c(OC)cc3CC2=O)cc1OC | -0.06 |
| NS(=O)(=O)Oc1ccc2c3c(c(=O)oc2c1)CCCCC3 | -3.5 |
| O=C(O)[C@@H](S)[C@@H](S)C(=O)O | 27.7 |
| S=C(S)N1CCCC1 | 2.25 |
| NC(=O)CN1C[C@H](O)CC1=O | -6.09 |
| C[C@@H]1O[C@@H](OC[C@H]2O[C@@H](Oc3c(-c4ccc(O)c(O)c4)oc4cc(O)cc(O)c4c3=O)[C@H](O)[C@@H](O)[C@@H]2O)[C@H](O)[C@H](O)[C@H]1O | 28.3 |
| CNC[C@H](O)c1cccc(O)c1 | 18.7 |
| C[N+](C)(C)CCOP(=O)([O-])OC[C@H](O)CO | -0.93 |
| CC(C(=O)O)c1ccc2c(c1)Cc1cccnc1O2 (stereo not shown) | 0.51 |
| O=C(/C=C/C=C/c1ccc2c(c1)OCO2)N1CCCCC1 | 2.81 |
| COc1cc(O)c2c(c1)C(=O)c1cc(C)cc(O)c1C2=O | -0.14 |
| Cc1ccc(C(=O)C(C)CN2CCCCC2)cc1 (stereo not shown) | 3.28 |
| N#Cc1ccc(Oc2ccc3c(c2)COB3O)cc1 | -2.7 |
| Cc1nnc(NS(=O)(=O)c2ccc(N)cc2)s1 | 23.8 |
| CCCN(CCC)C(=O)C1=Cc2ccc(-c3ccc(C(=O)N4CCCC4)cc3)cc2N=C(N)C1 | 4.55 |
| N[C@@H](C(=O)O)c1ccc(O)c(C(=O)O)c1 | -3.84 |
| O=C(NC1Cc2ccccc2N(C[C@@H](O)CO)C1=O)c1cc2cc(Cl)sc2[nH]1 (stereo partly shown) | -2.13 |
| C=C1C(=O)O[C@@H]2[C@H]3O[C@]3(C)CC/C=C(\C)CC[C@@H]12 | -0.66 |
| CC(C)(CO)c1cc2cc(NC(=O)C3(c4ccc5c(c4)OC(F)(F)O5)CC3)c(F)cc2n1C[C@@H](O)CO | -7.38 |
| c1ccc2c(c1)CCCC2C1=NCCN1 (stereo not shown) | 23.3 |
| O=S(=O)(O)c1ccc2[nH]c(-c3ccccc3)nc2c1 | -0.91 |
| COc1cn(-c2ccc(-n3cccn3)cc2F)nc(-c2ccnn2-c2ccccc2)c1=O | -10.9 |
| OC[C@H]1O[C@@H](Oc2ccc(O)cc2)[C@H](O)[C@@H](O)[C@@H]1O | -2.49 |

For quick reference, copied from above (sample 5):
| SMILES | inhibition [%] |
| --- | --- |
| N[C@@H](C(=O)O)c1ccc(O)c(C(=O)O)c1 | -3.84 |
| O=C(NC1Cc2ccccc2N(C[C@@H](O)CO)C1=O)c1cc2cc(Cl)sc2[nH]1 (stereo partly shown) | -2.13 |
| C=C1C(=O)O[C@@H]2[C@H]3O[C@]3(C)CC/C=C(\C)CC[C@@H]12 | -0.66 |
| CC(C)(CO)c1cc2cc(NC(=O)C3(c4ccc5c(c4)OC(F)(F)O5)CC3)c(F)cc2n1C[C@@H](O)CO | -7.38 |
| c1ccc2c(c1)CCCC2C1=NCCN1 (stereo not shown) | 23.3 |
| O=S(=O)(O)c1ccc2[nH]c(-c3ccccc3)nc2c1 | -0.91 |
| COc1cn(-c2ccc(-n3cccn3)cc2F)nc(-c2ccnn2-c2ccccc2)c1=O | -10.9 |
| OC[C@H]1O[C@@H](Oc2ccc(O)cc2)[C@H](O)[C@@H](O)[C@@H]1O | -2.49 |
